Experimental data gathered from unrelated publications.
Protocols differ between the studies behind these lines. Values joined by “and” are separate records of one study, mostly repeats; a detail may differ. ± gives the spread as reported.

Compound | assay | test system | setting | how to read | endpoint | value
O=C(O)CCCOc1ccc(F)cc1-c1cc(-c2ccccc2C(F)(F)F)n(-c2ccccc2)n1 | refers to: β-glb | Crl:CD(SD) rats, female, serum | iv, 25 µg/kg, 1 day |  | serum protein fraction | 14.6 ± 0.7%
C[C@]1(O)C[C@@](N)(c2ccc(-c3nc4n(c3-c3ccccc3)COc3ccncc3-4)cc2)C1 |  | human, advanced or metastatic solid tumours | once daily, dose escalation total, any grade |  | patients with Rash TEAE | 66.7%
Oc1ccc(Cl)c(-c2cc(Cl)c(Cl)cc2Cl)c1Cl | enantioselective gas chromatography | racemized sample | column temperature 200 °C |  | enantiomeric fraction | 0.5
COc1ccnc(C(=O)N[C@H]2COC(=O)[C@H](Cc3ccccc3)[C@@H](OC(=O)C(C)C)[C@H](C)OC2=O)c1OCOC(=O)C(C)C | aerobic dark soil incubation | clay soil | 20 °C, modelling endpoint |  | DT50 | 2.65 days
Cn1ncc(-c2nc(N[C@H]3CC[C@H](N)CC3)ncc2Cl)c1CC1CC1 | phase I dose escalation | human patients | dose not given, any-grade TEAE |  | febrile neutropenia incidence | 37%
C[C@]1(CO)Cc2ncn(-c3ccc(C#N)c(Cl)c3)c2C(=O)O1 |  | healthy humans | 10 mg, fed |  | drug-related Somnolence incidence | 0%
CCCCCCCCCCCCCCCC(=O)N[C@@H](CCC(=O)NCCCC[C@H](NC(=O)[C@H](CC(=O)O)NC(=O)[C@H](CO)NC(=O)[C@@H](NC(=O)[C@H](Cc1ccccc1)NC(=O)[C@@H](NC(=O)CNC(=O)[C@H](CCC(N)=O)NC(=O)[C@H](CO)NC(=O)[C@@H](N)Cc1c[nH]cn1)[C@@H](C)O)[C@@H](C)O)C(=O)N[C@@H](CO)C(=O)N[C@@H](CCC(=O)O)C(=O)N[C@@H](Cc1ccc(O)cc1)C(=O)N[C@@H](CC(C)C)C(=O)N[C@@H](CC(=O)O)C(=O)N[C@@H](CO)C(=O)N[C@@H](CCC(=O)O)C(=O)N[C@@H](CCCNC(=N)N)C(=O)N[C@@H](C)C(=O)N[C@@H](CCCNC(=N)N)C(=O)N[C@@H](CC(=O)O)C(=O)N[C@@H](Cc1ccccc1)C(=O)N[C@H](C(=O)N[C@@H](C)C(=O)N[C@@H](Cc1c[nH]c2ccccc12)C(=O)N[C@@H](CC(C)C)C(=O)N[C@@H](CCC(=O)O)C(=O)N[C@@H](C)C(=O)NCC(=O)NCC(=O)O)C(C)C)C(=O)O | refers to: Dyspepsia | humans CrCl at least 90 mL/min | subcutaneous, 100 µg single dose |  | treatment-related adverse events | 12.5%
CCN1[C@@H](C(=O)NC23CCC(C(=O)O)(CC2)CC3)[C@H](c2cccc(Cl)c2F)[C@]2(C(=O)Nc3cc(Cl)ccc32)C12CCCCC2 |  | patients with advanced solid tumours | oral, dose not given, all doses |  | grade ≥3 Lymphocytopenia incidence | 33.3%
O=S(=O)(Nc1ccccc1)c1ccc(NC(=S)Nc2ccccc2)cc1 | refers to: EO% | female mouse, blood | oral, 80 mg/kg daily, 14 days |  | blood cell fraction | 1.78%
COc1cc(C(=O)NC2CCN(C)CC2)c(F)cc1Nc1ncc(C(F)(F)F)c(Oc2cccc3c2C(=O)N(C)C3)n1 |  | human patients, urine | oral, 300 mg single dose, geometric mean | relative to: dose | fraction excreted in urine (0-48 h) | 8.61%
O=c1oc2c(O)c(O)cc3c(=O)oc4c(O)c(O)cc1c4c23 | subacute oral toxicity | BALB/c mice | oral, 1000 mg/kg/day, 28 days |  | spleen weight | 0.085 g
CC[C@H](C)[C@H](NC(=O)[C@H](Cc1ccccc1)NC(=O)[C@H](CCC(=O)O)NC(=O)[C@H](CCCNC(=N)N)NC(=O)[C@H](C)NC(=O)[C@H](C)NC(=O)[C@H](CCC(N)=O)NC(=O)[C@H](CCC(=O)O)NC(=O)[C@H](CCC(=O)O)NC(=O)[C@H](CC(C)C)NC(=O)[C@H](Cc1ccc(O)cc1)NC(=O)[C@H](CO)NC(=O)[C@H](CO)NC(=O)[C@@H](NC(=O)[C@H](CC(=O)O)NC(=O)[C@H](CO)NC(=O)[C@@H](NC(=O)[C@H](Cc1ccccc1)NC(=O)[C@@H](NC(=O)CNC(=O)[C@H](CCC(=O)O)NC(=O)[C@H](C)NC(=O)CCc1cnc[nH]1)[C@@H](C)O)[C@@H](C)O)C(C)C)C(=O)N[C@@H](C)C(=O)N[C@@H](Cc1c[nH]c2ccccc12)C(=O)N[C@@H](CC(C)C)C(=O)N[C@H](C(=O)N[C@@H](CCCNC(=N)N)C(=O)NCC(=O)N[C@@H](CCCNC(=N)N)C(=O)N[C@@H](CCCCNC(=O)COCCOCCNC(=O)COCCOCCNC(=O)CC[C@H](NC(=O)CCCCCCCCCCCCCCCCC(=O)O)C(=O)O)C(=O)NCC(=O)NCC(=O)N[C@@H](CO)C(=O)N[C@@H](CCSC)C(=O)N[C@H](C(=O)N[C@@H](CCCCNc1c(NCCCCCN(O)C(=O)CCC(=O)NCCCCCN(O)C(=O)CCC(=O)NCCCCCN(O)C(C)=O)c(=O)c1=O)C(=O)O)C(C)C)C(C)C [zirconium-89 labelled] | ex vivo gamma counting | male Sprague-Dawley rats, brain | intravenous, 1 nmol, 24 h, mean of 3 animals |  | tissue uptake | 0.009 %ID/g
O=C(Nc1ccccc1)C1CCN(C(=O)Oc2cccnc2)CC1 | adverse event reporting | healthy women | oral, 60 mg, 7 days |  | subjects with chest discomfort | 0%
COc1cc2c(Oc3ccc4[nH]c(C)cc4c3F)ccnc2cc1OCC1(N)CC1 |  | paediatric recurrent refractory sarcoma | 10 mg |  | grade 1 or 2 gingival bleeding | 25%
Cc1ccccc1C(=O)NN=Cc1ccc(O)c(Br)c1 |  | C3H/HeN mouse IN model, plasma | intravenous, 1.6 mg/kg |  | C0 | 610 ng/mL
Nc1ncnc2c1ncn2[C@@H]1O[C@@H]2COP(=O)([S-])O[C@@H]3[C@H](O)[C@@H](COP([O-])(=S)O[C@H]2[C@H]1O)O[C@H]3n1cnc2c(N)ncnc21.[Na+].[Na+] (stereo partly shown) |  | non-tumor-bearing mice, serum | intravenous, 1 mg/kg, toxicity study |  | ALT | 67.5 ± 12.4 U/L
CC(C)(C)c1cc(-n2nc3ccccc3n2)c(O)c(C(C)(C)C)c1 | exposure assessment | human, age 21-60 years | cream |  | mean daily dermal uptake | 1.82 ng/kg body weight/day
O=C1Nc2cc3[nH]nc(-c4ccncc4)c3cc2CN1Cc1ccccc1 | CTCAE v4.03 | advanced solid tumour patients | intravenous, 3.6 mg/kg, schedules 1/2 |  | patients with ≥1 TEAE | 100%
COc1ncccc1-c1cnn2ccc(N3CCN(C(=O)OC(C)C)CC3)nc12 |  | mouse, SNL model, plasma | oral, 30 mg/kg, 120 min |  | drug concentration | 6.3 µM

Compound | assay | test system | setting | how to read | endpoint | value
C=CC(=O)N1CC[C@H](n2nc(C#Cc3cc(OC)cc(OC)c3)c3c(N)ncnc32)C1 |  | patients with advanced solid tumours | oral, dose not given, Dysgeusia, any grade, QD, with: sevelamer hydrochloride |  | adverse drug reaction incidence | 18.2%
COc1cccc(Oc2ccccc2NC(=O)CNC(=O)c2cccc3ccccc23)c1 |  | esterase-deficient SCID mice, male, blood | oral, 40 mg/kg/day, 14 days, toxicity study | relative to: white cells | basophils | 0% and 1.6%
Cc1ccc(F)c2cc(C(=O)N[C@@H]3CCC[C@H](N4CC[C@H](N(C)S(C)(=O)=O)C4)C3)[nH]c12 |  | CD1 mouse, plasma | oral, 30 mg/kg, 4 h |  | plasma concentration | 384 ng/mL
[2H]C([2H])([18F])[C@]([2H])(N)C(=O)O | dynamic PET | U-87 MG tumour-bearing mice, blood |  |  | blood half-life | 44.4 s
CC(=O)c1c(C)c2cnc(Nc3ccc(C4CCN(CCS(C)(=O)=O)CC4)cn3)nc2n(C2CCCC2)c1=O |  | human, plasma | oral, 25 mg once daily, day 21, multiple doses |  | Cmax | 79.2 ng/mL
NC(=O)[C@H]1CCN(c2ncnc(N)c2F)C[C@@H]1N1CCC[C@@H](Nc2cc(Cl)cc(C(F)(F)F)c2)C1=O |  | B-cell malignancy patients | oral, 246 mg twice daily, dose |  | grade ≥3 anaemia | 0%
CCc1ccc(CC/C=C/c2ccc3c(c2)C(=O)CC3)cc1 |  | Sprague-Dawley rat, female | oral, 30 mg/kg/day, 14 days |  | Albumin | 36.3 g/L
Cn1cc(-c2nc(N[C@@H]3CCCC[C@@H]3N)c(F)c3c2C(=O)NC3)cn1 | epistaxis | patients with relapsed or refractory AML | oral, 160 mg once daily |  | adverse events | 11%
Clc1ccc(-c2ccccc2)cc1 |  | Sprague-Dawley rats, female, serum | inhalation, 23 µg/rat, 0 h after exposure |  | albumin | 3 ± 0.6 g/dL
[O-][S+]1CCc2nc(N3CCC(c4ncc(Cl)cn4)CC3)nc(NC3(CO)CCC3)c21 (stereo not shown) | refers to: upper abdominal pain | healthy male humans | 48 mg single dose |  | adverse event incidence | 0%
CO[C@H]1C[C@@H]2CC[C@@H](C)[C@@](O)(O2)C(=O)C(=O)N2CCCC[C@H]2C(=O)O[C@H]([C@H](C)C[C@@H]2CC[C@@H](OC(=O)NCCOCCOCCOCCOCCOCCOCCOCCOCCC(=O)N3CCc4cc(Cn5nc(-c6ccc7oc(N)nc7c6)c6c(N)ncnc65)ccc4C3)[C@H](OC)C2)C[C@@H](O)[C@H](C)/C=C(\C)[C@@H](O)[C@@H](OC)C(=O)[C@H](C)C[C@H](C)/C=C/C=C/C=C/1C |  | patients with advanced solid tumours | intravenous, 16 mg weekly, grade 3 or higher |  | constipation incidence | 0%
CC(C)CC(=O)OC[C@H]1O[C@@](C#N)(c2ccc3c(N)ncnn23)[C@H](O)[C@@H]1O |  | monkey plasma | 90 µM |  | fraction unbound | 0.254
CC(C)C[C@H](NC(=O)[C@H](CCCCN)NC(=O)OCC1c2ccccc2-c2ccccc21)C(=O)N[C@H](C(=O)N[C@@H](Cc1ccccc1)C(=O)N[C@@H](Cc1ccccc1)C(=O)N[C@@H](CCCCN)C(=O)NCC(=O)N[C@@H](Cc1ccccc1)C(=O)N[C@@H](C)C(=O)N[C@@H](Cc1c[nH]c2ccccc12)C(=O)N[C@@H](CC(N)=O)C(=O)N[C@H](C(=O)N[C@H]1CSSC[C@@H](C(=O)N[C@@H](Cc2c[nH]cn2)C(=O)N[C@@H](CCCNC(=N)N)C(=O)N[C@@H](CCCNC(=N)N)C(=O)N[C@@H](C)C(=O)N[C@@H](CC(N)=O)C(N)=O)NC(=O)[C@H](C(C)C)NC(=O)[C@H](CCCNC(=N)N)NC(=O)[C@H](C(C)C)NC(=O)CNC(=O)[C@H](CC(N)=O)NC(=O)[C@H](CCCNC(=N)N)NC(=O)[C@H](Cc2ccc(O)cc2)NC(=O)[C@H](C(C)C)NC1=O)C(C)C)C(C)C |  | ICR mice, serum | intraperitoneal, 10 mg/kg, day 5 |  | ALT | 47.3 ± 1.46 IU/L
CC[C@H](C)[C@H](NC(=O)[C@H](Cc1ccccc1)NC(=O)[C@H](CCC(=O)O)NC(=O)[C@H](CCCCNC(=O)COCCOCCNC(=O)COCCOCCNC(=O)CC[C@H](NC(=O)CCCCCCCCCCCCCCCCC(=O)O)C(=O)O)NC(=O)[C@H](C)NC(=O)[C@H](C)NC(=O)[C@H](CCC(N)=O)NC(=O)CNC(=O)[C@H](CCC(=O)O)NC(=O)[C@H](CC(C)C)NC(=O)[C@H](Cc1ccc(O)cc1)NC(=O)[C@H](CO)NC(=O)[C@H](CO)NC(=O)[C@@H](NC(=O)[C@H](CC(=O)O)NC(=O)[C@H](CO)NC(=O)[C@@H](NC(=O)[C@H](Cc1ccccc1)NC(=O)[C@@H](NC(=O)CNC(=O)[C@H](CCC(=O)O)NC(=O)C(C)(C)NC(=O)[C@@H](N)Cc1cnc[nH]1)[C@@H](C)O)[C@@H](C)O)C(C)C)C(=O)N[C@@H](C)C(=O)N[C@@H](Cc1c[nH]c2ccccc12)C(=O)N[C@@H](CC(C)C)C(=O)N[C@H](C(=O)N[C@@H](CCCNC(=N)N)C(=O)NCC(=O)N[C@@H](CCCNC(=N)N)C(=O)NCC(=O)O)C(C)C | refers to: Deaths | type 2 diabetes patients | dose not given | relative to: subjects | adverse event incidence | 0%
COc1cc2c(OC3CCNCC3)c3c(c(-c4ccc5c(c4)OCO5)c2cc1OC)C(=O)OC3 |  | mouse | oral |  | CL/F | 0.848 L/h
C#C[C@]1(CO)O[C@@H](n2cnc3c(N)nc(F)nc32)C[C@@H]1O |  | monkey | oral, 29 days |  | NOAEL | 20 mg/kg
CC(C)[C@@H]1NC(=O)CNC(=O)[C@H](CC(N)=O)NC(=O)[C@H](CCCNC(=N)N)NC(=O)[C@H](Cc2ccc(O)cc2)NC(=O)[C@H](C(C)C)NC(=O)[C@@H](NC(=O)[C@@H](NC(=O)[C@H](CC(N)=O)NC(=O)[C@H](Cc2c[nH]c3ccccc23)NC(=O)[C@H](C)NC(=O)[C@H](Cc2ccccc2)NC(=O)CN)C(C)C)CSSC[C@@H](C(=O)N[C@@H](Cc2cnc[nH]2)C(=O)N[C@@H](CCCNC(=N)N)C(=O)N[C@@H](CCCNC(=N)N)C(=O)N[C@@H](C)C(=O)N[C@@H](CC(N)=O)C(N)=O)NC(=O)[C@H](C(C)C)NC(=O)[C@H](CCCNC(=N)N)NC1=O |  | ICR mice, blood | intraperitoneal, 10 mg/kg, day 5 |  | plateletcrit | 0.02%
Cc1nc([C@@](C)(CC2CC2)NC(=O)c2cc(OCC(F)(F)F)c(C3CC3)cn2)no1 |  | C57BL/6 mice | oral, dose not given |  | oral bioavailability | 68%
